Results of several laboratories.
Compare with care: the assays were run in different laboratories. Several values in a cell are separate wells, animals, samples, runs or records. Numbers after ± are the reported error.
TDP1: Tyrosyl-DNA phosphodiesterase 1 (TDP1, Homo sapiens, UniProt Q9NUW8)
UniProt Q9NUW8, sequence (whole entry, looked up): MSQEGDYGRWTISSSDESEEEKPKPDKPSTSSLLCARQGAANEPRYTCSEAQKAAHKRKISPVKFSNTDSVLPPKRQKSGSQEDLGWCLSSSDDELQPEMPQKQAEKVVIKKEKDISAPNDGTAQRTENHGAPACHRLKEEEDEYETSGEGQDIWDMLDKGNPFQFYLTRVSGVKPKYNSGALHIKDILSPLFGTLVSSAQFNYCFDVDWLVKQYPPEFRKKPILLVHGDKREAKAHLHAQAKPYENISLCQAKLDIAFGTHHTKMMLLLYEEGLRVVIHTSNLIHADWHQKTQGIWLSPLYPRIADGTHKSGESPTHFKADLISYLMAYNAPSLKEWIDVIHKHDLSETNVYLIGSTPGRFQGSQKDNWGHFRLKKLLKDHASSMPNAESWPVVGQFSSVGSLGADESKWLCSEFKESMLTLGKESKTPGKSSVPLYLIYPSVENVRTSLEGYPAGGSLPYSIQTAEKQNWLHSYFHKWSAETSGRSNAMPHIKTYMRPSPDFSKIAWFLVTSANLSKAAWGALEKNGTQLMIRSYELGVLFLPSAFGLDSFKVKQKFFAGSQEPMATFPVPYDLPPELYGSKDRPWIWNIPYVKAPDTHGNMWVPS

CN1CCC[C@]1(C)/C=C/S(=O)(=O)NC(=O)Nc1c2c(cc3c1CCC3)CCC2
IL-1β inhibition (human, whole blood ex vivo; 12.5 mg twice daily, day 14, 36 h, multiple ascending dose, with: LPS and ATP): 27.4%

CC(=O)[O-].O.[Cu+2].[O-]c1ccc(Br)cc1C=NCCN1CCOCC1
inhibition (superoxide scavenging; 80 µM): 16.3%

COCCOCCOCCNC(=O)Cc1cc(CC(=O)N[C@H]2C[C@H]3C(=O)Nc4cc(OCCOCCOCCOC)cc(n4)C(=O)N4CCC[C@H]4C(=O)Nc4cc(OCCOCCOCCOC)cc(n4)C(=O)N4CCC[C@H]4C(=O)Nc4cc(OCCOCCOCCOC)cc(n4)C(=O)N3C2)cc(CC(=O)N[C@H]2C[C@H]3C(=O)Nc4cc(OCCOCCOCCOC)cc(n4)C(=O)N4CCC[C@H]4C(=O)Nc4cc(OCCOCCOCCOC)cc(n4)C(=O)N4CCC[C@H]4C(=O)Nc4cc(OCCOCCOCCOC)cc(n4)C(=O)N3C2)c1
TΔS (anion binding, ITC; water/acetonitrile 95 vol% (98.2 mol%); 298 K, with: sodium sulfate): 5.856 ± 0.0239 kcal/mol

CCC(=O)N[C@@H](C)C(=O)OCC(=O)N[C@@H](C)C(=O)O
chain scission rate constant (water; pH 7, 50 °C): 0.0492 h⁻¹

COc1ccc(C(=O)CCc2cc(C(CCc3ccc(O)cc3OC)c3ccc(O)cc3)c(O)cc2OC)cc1 (racemic)
15-HETE level (human blood; 10 µM, with: A23187): 277 ± 100 pg/mL

O=C(O)c1ccc(Nc2c(-c3ccccc3)nc3ccc(CON=Cc4nc5ccccc5s4)cn23)cc1
inhibition (TDP1; enzyme activity, inhibitor; 100 µM, unpurified compound): 10.6%

COc1ccc(NC(=O)c2ccc3[nH]c(-c4ccc(N(C)C)cc4)nc3c2)cn1
tumour volume (CT26, BALB/c nude mice, subcutaneous graft; dose not given, day 9): 1200 mm3 and 1770 mm3 and 767 mm3 and 493 mm3 and 808 mm3

CCCCCc1ccc(S(=O)(=O)N2CC2C(=O)OC)cc1 (stereo not drawn)
tumour volume (mouse, Lewis lung carcinoma; intraperitoneal, 15 mg/kg, 16 doses, day 10): 201 mm3

Cc1[nH]nc2c1N=C(c1ccccc1Cl)c1cnc(N3CCOCC3)cc1N2
tumour growth inhibition (mouse sample G TNBC PDX; oral, 15 mg/kg, 120 h, 5 days per week): 61%

COc1cnc2cccc(N3CCc4c(cc(Cn5ccnc5)cc4-c4cn(C)nc4C(F)(F)F)C3=O)c2c1
tumour volume (BALB/c nude mice, MV4-11 xenograft; intraperitoneal, 75 mg/kg, day 10): 151 mm3 and 172 mm3 and 161 mm3 and 164 mm3 and 144 mm3 and 105 mm3

COCC1CN(C2CCN(c3cc(OC)c(Nc4ncc(Br)c(Nc5ccc6c(c5P(C)(C)=O)OCCO6)n4)cc3C)CC2)C1
progressive disease (RECIST 1.1; advanced EGFR-mutant NSCLC patients; 150 mg once daily): 66.7%

CC(C)C[C@H](NC(=O)CNC(=O)[C@H](CCC(N)=O)NC(=O)[C@H](CC(C)C)NC(=O)[C@H](CC(C)C)NC(=O)[C@H](CCCNC(=N)N)NC(=O)[C@H](CCC(N)=O)NC(=O)[C@H](CC(C)C)NC(=O)[C@H](CCCNC(=N)N)NC(=O)[C@H](C)NC(=O)CNC(=O)[C@H](CCC(=O)O)NC(=O)[C@H](CCCNC(=N)N)NC(=O)[C@H](CC(C)C)NC(=O)[C@H](CCCNC(=N)N)NC(=O)[C@H](CO)NC(=O)[C@H](CC(C)C)NC(=O)[C@H](CCC(=O)O)NC(=O)[C@H](CO)NC(=O)[C@@H](NC(=O)[C@H](Cc1ccccc1)NC(=O)[C@@H](NC(=O)CNC(=O)[C@H](CC(=O)O)NC(=O)C(C)(C)NC(=O)[C@@H](N)Cc1c[nH]cn1)[C@@H](C)O)[C@@H](C)O)C(=O)N[C@@H](CC(C)C)C(=O)N[C@@H](CCC(N)=O)C(=O)NCC(=O)N[C@@H](CC(C)C)C(=O)N[C@H](C(=O)NCC(=O)N[C@@H](CCCCNC(=O)COCCOCCNC(=O)COCCOCCNC(=O)CC[C@H](NC(=O)CCCCCCCCCCCCCCCCC(=O)O)C(=O)O)C(N)=O)C(C)C
luciferase induction (cAMP reporter gene; CRE-Luc mouse, liver homogenate; subcutaneous, 300 nmol/kg, 6 h; baseline: vehicle): 148 fold

CC[C@H](C)[C@@H](C(=O)N[C@@H](CC(C)C)C(=O)N[C@@H](CO)C(=O)N[C@@H](CO)C(=O)N[C@H](C(=O)N[C@@H](CCC(=O)O)C(=O)N[C@H](C(=O)NCC(=O)N[C@@H](CO)C(=O)N[C@@H](CC(N)=O)C(=O)N[C@H](C(=O)N1CCC[C@H]1C(N)=O)[C@@H](C)O)C(C)C)[C@@H](C)O)N(C)C(=O)[C@H](C)NC(=O)CN(C)C(=O)[C@H](Cc1ccccc1)NC(=O)[C@H](CO)NC(=O)[C@H](CO)NC(=O)[C@H](CCCNC(=N)N)NC(=O)[C@H](Cc1c[nH]cn1)NC(=O)[C@H](CC(C)C)NC(=O)[C@H](Cc1ccccc1)NC(=O)[C@H](Cc1c[nH]cn1)NC(=O)[C@H](C)NC(=O)[C@H](CC(C)C)NC(=O)[C@H](CCCNC(=N)N)NC(=O)[C@H](CCC(=O)O)NC(=O)[C@@H](NC(=O)[C@H](C)NC(=O)[C@@H]1CSSC[C@H](NC(=O)[C@H](CCCNC(=N)N)NC(=O)CC[C@H](NC(=O)CCCCCCCCCCCCCCCCCCC(=O)O)C(=O)O)C(=O)NCC(=O)N[C@@H]([C@@H](C)O)C(=O)N[C@@H](C)C(=O)N[C@@H]([C@@H](C)O)C(=O)N1)[C@@H](C)O
food intake (male Sprague-Dawley rats; subcutaneous, 30 nmol/kg single dose, 24 h; baseline: vehicle): 83.3 ± 1.6%

COc1cc2c(NC3CCN(C(C)C)CC3)cc(N3CCOCC3)nc2cc1OCCCN1CCCC1
log2 fold change (TMT proteomics, refers to: SMOC1; 5xFAD mice, hippocampus; dose not given; baseline: wild-type mice): 0.58

COc1ccc(C2CC(Nc3ccc(-c4ccc(NC5=NOC(c6ccc(OC)cc6)C5)cc4)cc3)=NO2)cc1 (stereo not drawn)
inhibition (carrageenan paw oedema; albino rat; oral, 50 mg/kg, 3 h; baseline: vehicle): 50.7%

O=Nc1ccc(O)c(=O)cc1
CC50 (HepDES19; cell growth or viability, MTS; 72 h): 78.6 µM

CCCC[N+]1=c2cc3c4cc2[O][Mn-2]1(=[C]=O)(=[C]=O)(=[C]=O)[n+]1ccc(cc1)C(=O)Oc1ccccc1OC(=O)c1cc[n+](cc1)[Mn-2](=[C]=O)(=[C]=O)(=[C]=O)([O]3)[N+]=4CCCC
apparent CO release rate constant (myoglobin; equine heart myoglobin; with: green LED light): 0.000753 s⁻¹

Nc1nc2cc(CC[C@H]3C[C@@H](n4ccc5c(N)ncnc54)[C@H](O)[C@@H]3O)ccc2cc1Br
tumour volume (NCI-H520 xenograft, mouse; 3.0 mg/kg/day, day 27): 94 ± 8 mm3

FCCOCCOCCOCCn1cc(COc2ccc(-c3nncnn3)cc2)nn1
second order rate constant (DPBS; 37 °C, with: TCO-PEG4): 39000 ± 2500 M⁻¹ s⁻¹

COc1ccc(C2CC(Nc3ccc(-c4ccc(NC5=NN(C(C)=O)C(c6ccc(OC)cc6)C5)cc4)cc3)=NN2C(C)=O)cc1 (stereo not drawn)
inhibition (carrageenan paw oedema; albino rat; oral, 100 mg/kg, 3 h): 69.2%

COC1CN([C@H]2CC[C@H]([C@@]3(C)Oc4c(Cl)cc(C(=O)NCc5c(SC)cc(C)[nH]c5=O)c(C)c4O3)CC2)C1
log2 fold change (RNA-seq, refers to: SLC25A27; human, whole blood; dose not given, 24 h; baseline: pretreatment baseline): 2.7

COc1cc(C2CC(Nc3ccc(-c4ccc(NC5=NN(C(C)=O)C(c6ccc(O)c(OC)c6)C5)cc4)cc3)=NN2C(C)=O)ccc1O (stereo not drawn)
inhibition (carrageenan paw oedema; albino rat; oral, 50 mg/kg, 3 h): 38.2%

Nc1ncc(-c2cc(-c3cnn(CC(F)(F)F)c3)ncc2F)nc1C(=O)NC1CNCC(F)C1 (stereo not drawn)
remaining binding (ABL1-nonphosphorylated; KINOMEscan competition binding; 1 µM; baseline: DMSO control): 100%

Cc1cccc(C)c1CNc1cc(C(=O)N2CCC2)cn2c(C)c(C)nc12
inhibition (aspirin-induced gastric lesions; rat; oral, 2 mg/kg, 4 h; baseline: vehicle): 79.2%

COc1cc(O)ccc1CCC(c1ccc(O)cc1)c1cc2c(c(C)c1O)OC(c1ccc(O)cc1)CC2 (mixture of isomers)
15-HETE level (human blood; 1 µM, with: A23187): 191 ± 44 pg/mL

CC[C@H](C)[C@@H](C(=O)N[C@@H](CC(C)C)C(=O)N[C@@H](CO)C(=O)N[C@@H](CO)C(=O)N[C@H](C(=O)N[C@@H](CCC(=O)O)C(=O)N[C@H](C(=O)NCC(=O)N[C@@H](CO)C(=O)N[C@@H](CC(N)=O)C(=O)N[C@H](C(=O)N1C[C@H](O)C[C@H]1C(N)=O)[C@@H](C)O)C(C)C)[C@@H](C)O)N(C)C(=O)[C@H](C)NC(=O)CN(C)C(=O)[C@H](Cc1ccccc1)NC(=O)[C@H](CO)NC(=O)[C@H](CO)NC(=O)[C@H](CCCNC(=N)N)NC(=O)[C@H](CCC(N)=O)NC(=O)[C@H](CC(C)C)NC(=O)[C@H](Cc1ccccc1)NC(=O)[C@H](Cc1c[nH]cn1)NC(=O)[C@H](C)NC(=O)[C@H](CC(C)C)NC(=O)[C@H](CCCNC(=N)N)NC(=O)[C@H](CCC(=O)O)NC(=O)[C@@H](NC(=O)[C@H](C)NC(=O)[C@@H]1CSSC[C@H](NC(=O)[C@H](CCCNC(=N)N)NC(=O)CC[C@H](NC(=O)CCCCCCCCCCCCCCCCCCC(=O)O)C(=O)O)C(=O)N[C@@H](CCC(N)=O)C(=O)N[C@@H]([C@@H](C)O)C(=O)N[C@@H](C)C(=O)N[C@@H]([C@@H](C)O)C(=O)N1)[C@@H](C)O
food intake (male Sprague-Dawley rats; subcutaneous, 30 nmol/kg single dose, 24 h; baseline: vehicle): 69.9 ± 3.1%

COc1cc(C2CC(Nc3ccc(-c4ccc(NC5=NOC(c6ccc(O)c(OC)c6)C5)cc4)cc3)=NO2)ccc1O (stereo not drawn)
inhibition (carrageenan paw oedema; albino rat; oral, 50 mg/kg, 3 h): 35.5%

CC(C)(C)NCC(SS(=O)(=O)O)c1ccccc1 (stereo not drawn)
spleen weight (mouse infected with Schistosoma mansoni; 400 mg/kg, day 7 post-infection dosing once, perfusion day 52 post-infection): 0.9 g and 0.8 g and 0.54 g and 0.58 g and 1.25 g

Cc1ccc(C(C=NOCc2ccc3nc(-c4ccccc4)c(Nc4ccc(C(=O)O)cc4)n3c2)=CN(C)C)cc1 (mixture of isomers)
inhibition (TDP1; enzyme activity, inhibitor; 100 µM, unpurified compound): 48.6%

Cc1ncsc1-c1ccc(C(C)NC(=O)C2CC(O)CN2C(=O)C(NC(=O)CCCCCCCCCCN2CCCC(Nc3ncc(Cl)c(Nc4ccccc4S(=O)(=O)C(C)C)n3)C2)C(C)(C)C)cc1 (stereo not drawn)
log2 fold change (22Rv1; RNA-seq, refers to: METTL23 mRNA; concentration not given; baseline: DMSO): -1.26

For quick reference, copied from above:
COc1cnc2cccc(N3CCc4c(cc(Cn5ccnc5)cc4-c4cn(C)nc4C(F)(F)F)C3=O)c2c1
tumour volume (BALB/c nude mice, MV4-11 xenograft; intraperitoneal, 75 mg/kg, day 10): 151 mm3 and 172 mm3 and 161 mm3 and 164 mm3 and 144 mm3 and 105 mm3

COCC1CN(C2CCN(c3cc(OC)c(Nc4ncc(Br)c(Nc5ccc6c(c5P(C)(C)=O)OCCO6)n4)cc3C)CC2)C1
progressive disease (RECIST 1.1; advanced EGFR-mutant NSCLC patients; 150 mg once daily): 66.7%

CC(C)C[C@H](NC(=O)CNC(=O)[C@H](CCC(N)=O)NC(=O)[C@H](CC(C)C)NC(=O)[C@H](CC(C)C)NC(=O)[C@H](CCCNC(=N)N)NC(=O)[C@H](CCC(N)=O)NC(=O)[C@H](CC(C)C)NC(=O)[C@H](CCCNC(=N)N)NC(=O)[C@H](C)NC(=O)CNC(=O)[C@H](CCC(=O)O)NC(=O)[C@H](CCCNC(=N)N)NC(=O)[C@H](CC(C)C)NC(=O)[C@H](CCCNC(=N)N)NC(=O)[C@H](CO)NC(=O)[C@H](CC(C)C)NC(=O)[C@H](CCC(=O)O)NC(=O)[C@H](CO)NC(=O)[C@@H](NC(=O)[C@H](Cc1ccccc1)NC(=O)[C@@H](NC(=O)CNC(=O)[C@H](CC(=O)O)NC(=O)C(C)(C)NC(=O)[C@@H](N)Cc1c[nH]cn1)[C@@H](C)O)[C@@H](C)O)C(=O)N[C@@H](CC(C)C)C(=O)N[C@@H](CCC(N)=O)C(=O)NCC(=O)N[C@@H](CC(C)C)C(=O)N[C@H](C(=O)NCC(=O)N[C@@H](CCCCNC(=O)COCCOCCNC(=O)COCCOCCNC(=O)CC[C@H](NC(=O)CCCCCCCCCCCCCCCCC(=O)O)C(=O)O)C(N)=O)C(C)C
luciferase induction (cAMP reporter gene; CRE-Luc mouse, liver homogenate; subcutaneous, 300 nmol/kg, 6 h; baseline: vehicle): 148 fold
